Results gathered from unrelated publications.
Several values in a cell are separate wells, animals, samples, runs or records.
RPS6KA2: Ribosomal protein S6 kinase alpha-2 (RPS6KA2, Homo sapiens, UniProt Q15349)

| Compound | target | assay | system | conditions | scale | endpoint | result |
| --- | --- | --- | --- | --- | --- | --- | --- |
| Cc1nc2c(F)cc(-c3nc(Nc4ccc(CNC(=O)CCCCCCC(=O)NO)cc4)ncc3F)cc2n1C(C)C | RPS6KA2 | enzyme activity, inhibitor |  | 1 µM |  | inhibition | 78% |
| C=CC(=O)Nc1cccc(-c2cnc3[nH]cc(C(=O)NC(C)(C)C)c3n2)c1 | RPS6KA2 | kinase activity, inhibitor, kinase panel |  | 0.1 µM |  | inhibition | 40% and 38% |
| COCC12C(=O)NC3C4(C(OC)CC1O)C1CC5(O)C(OC)C(O)C(OC(C)=O)(C1C5OC(=O)c1ccccc1)C3(O)C(OC)C24 (centres unmarked) | RPS6KA2 | kinase activity, inhibitor, ProQinase kinase profiling |  | 25 µM | relative to: control | remaining activity | 106% and 111% |
| CN1CCN(Cc2ccc(-c3ccc(CO[C@H]4CCC[C@@H]4NC(=O)c4cc(-c5cnn(C)c5)cnc4N)cc3)cc2)CC1 | RPS6KA2 | enzyme activity, inhibitor |  | 0.1 µM |  | inhibition | 21% |
| C=CC(=O)N1Cc2nc(-c3cc(-c4cc(Cl)cnc4Cl)c(F)cc3F)n(-c3ccncn3)c2C1 | RPS6KA2 | cell-free assay, inhibitor |  | 1 µM |  | inhibition | 9.6% |
| NC(=O)C[C@H]1CCc2sc3ncnc(O[C@H]4CC[C@H](N5CCOCC5)CC4)c3c21 | RPS6KA2 | radioisotope kinase |  | 10 µM |  | inhibition | 25% |
| CNC(=O)C[C@H](Cc1ccc(C#N)cc1)NC(=O)c1cc(-c2ccc(CN[C@H](C)c3ccc(C)cc3)o2)ccc1Cl | RPS6KA2 | enzyme activity, inhibitor |  | 1 µM |  | activity vs control | 104% |
| CCn1cc(C(=O)O)c(=O)c2c(N)c(F)c(NC3CCCCC3)cc21 | RPS6KA2 | kinase activity |  | 0.1 µM, with: ATP at Km |  | inhibition | -7% |
| O=C=[N][Ru-4]123([n]4c5ccc(O)cc5c5c6c(c7cc(F)c[n+]1c7c54)C(=O)NC6=O)[S+]1CC[S+]2CC[S+]3CC1 (centres unmarked) | RPS6KA2 | enzyme activity |  | 100 nM, human enzyme, with: 10 µM ATP | relative to: untreated | remaining activity | 31% |
| O=C(Cc1ccc(OCc2ccccc2)cc1)NC1(C(=O)O)CCN(C(=O)c2ccc(-c3cccc(Cl)c3)cc2)CC1 | RPS6KA2 | enzyme activity, inhibitor |  | 10 µM |  | activity vs control | 105% |
| CS(=O)(=O)Nc1cccc(-c2csc3cnc(Nc4ccc(N5CCN(CCCCCOc6cccc7c6C(=O)N(C6CCC(=O)NC6=O)C7=O)CC5)cc4)nc23)c1 (centres unmarked) | Ribosomal protein S6 kinase alpha-2, kinase domain 1 (RPS6KA2, Homo sapiens, UniProt Q15349) | probe labelling, inhibitor, KiNativ chemoproteomics | MOLT-4 | 1 µM |  | inhibition | 2.06% |
| Cc1cccc(O[C@H]2CCC[C@@H](C(C)CNCc3ccncc3)C2)c1 (relative stereo) | RPS6KA2 | kinome profiling |  | 1 µM |  | inhibition | 1% |
| Nc1ncc(-c2cc(-c3cnn(CC(F)(F)F)c3)ncc2F)nc1C(=O)NC1CNCC(F)C1 (centres unmarked) | RPS6KA2 | enzyme activity |  | 1 µM | relative to: DMSO control | remaining activity | 42% |
| N[C@H]1CC[C@H](Nc2nccc(-c3cccnc3Oc3ccc(NC(=O)NC4CC4)c4ccccc34)n2)CC1 | RPS6KA2 | kinobead competition pulldown | HEK293/HCT116 lysate mixture | 10 µM, 1 h, 4 °C | lower = stronger competition | log2 LFQ intensity | 18.5 and 20.7 and 19.4 and 18.8 |
| COc1ccc(NC(=O)Nc2ccc3c(c2)C(=O)N(C(C)CO)CC(C)C(CN(C)Cc2ccc4c(c2)OCO4)O3)cc1 (centres unmarked) | RPS6KA2 | kinase activity, KinaseProfiler |  | 0.03 µM, species human | relative to: control | remaining activity | 97% |
| COc1c(OCCCN2CCOCC2)ccc2c1N=C(NC(=O)c1cnc(N)nc1)N1CCN=C21 | RPS6KA2 | kinase activity, inhibitor |  | 1 µM | relative to: untreated control | remaining activity | 102% |
| COc1ccc(C(=O)/C=C/c2ccccc2-c2c[nH]c3ccc(C#N)cc23)c(O)c1 | RPS6KA2 | inhibitor |  | 20 µM |  | inhibition | 7% |
| O=c1c(-c2ccc(Cl)c(CN3CCOCC3)c2)coc2cc(O)ccc12 | RPS6KA2 | enzyme activity, inhibitor |  | 1 µM |  | remaining activity | 95% |
| CN1CC[C@@H](COc2cnc(C#N)cc2-c2ccn3nc(NC(=O)C4CC4)cc3c2)C1 | RPS6KA2 | inhibitor, KinaseProfiler panel |  | 1 µM |  | inhibition | 35% |
| NC(=O)[C@@H](O)C[C@H]1CCc2sc3ncnc(O[C@H]4CC[C@H](N5CCOCC5)CC4)c3c21 | RPS6KA2 | radioisotope kinase |  | 10 µM |  | inhibition | 38% |
